Assay results pooled from the literature.
Each line is one published result; not all experiments were run side by side. Values joined by “and” are separate records of one study, mostly repeats; a detail may differ. Numbers after ± are the reported error.
Rhomboid protease AarA: Rhomboid protease AarA (Providencia stuartii, UniProt P46116)
Chain of UniProt P46116 (whole entry, looked up): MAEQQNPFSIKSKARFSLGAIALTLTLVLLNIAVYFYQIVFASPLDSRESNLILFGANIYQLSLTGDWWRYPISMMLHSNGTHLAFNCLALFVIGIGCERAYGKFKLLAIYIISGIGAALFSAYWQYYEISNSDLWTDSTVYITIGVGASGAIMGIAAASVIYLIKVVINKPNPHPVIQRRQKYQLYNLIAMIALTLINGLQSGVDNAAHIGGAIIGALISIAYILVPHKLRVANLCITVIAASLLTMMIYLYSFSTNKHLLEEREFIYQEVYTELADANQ
PPARG ligand-binding domain: Peroxisome proliferator-activated receptor gamma, ligand-binding domain (PPARG, Homo sapiens, UniProt P37231)
Chain of UniProt P37231 (whole entry, looked up): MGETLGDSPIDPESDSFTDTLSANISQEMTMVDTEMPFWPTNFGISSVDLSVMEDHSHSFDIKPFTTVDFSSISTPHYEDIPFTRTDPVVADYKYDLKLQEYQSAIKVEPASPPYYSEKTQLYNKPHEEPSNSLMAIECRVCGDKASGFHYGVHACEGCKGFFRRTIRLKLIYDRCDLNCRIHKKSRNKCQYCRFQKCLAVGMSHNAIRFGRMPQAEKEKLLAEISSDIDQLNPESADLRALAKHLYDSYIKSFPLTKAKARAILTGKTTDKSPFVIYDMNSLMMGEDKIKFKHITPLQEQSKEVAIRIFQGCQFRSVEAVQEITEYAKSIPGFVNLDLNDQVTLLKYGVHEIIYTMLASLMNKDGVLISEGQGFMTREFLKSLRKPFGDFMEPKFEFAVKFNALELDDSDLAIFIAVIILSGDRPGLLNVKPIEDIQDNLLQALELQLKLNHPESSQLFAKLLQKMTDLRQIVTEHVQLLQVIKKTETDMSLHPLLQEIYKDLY
PPARG: Peroxisome proliferator-activated receptor gamma (PPARG, Homo sapiens, UniProt P37231)
Chain of UniProt P21741 (whole entry, looked up): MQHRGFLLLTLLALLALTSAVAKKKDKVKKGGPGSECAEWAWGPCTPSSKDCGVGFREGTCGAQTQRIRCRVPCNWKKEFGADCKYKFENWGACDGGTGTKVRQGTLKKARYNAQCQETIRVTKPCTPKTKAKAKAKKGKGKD
Chain of UniProt P43358 (whole entry, looked up): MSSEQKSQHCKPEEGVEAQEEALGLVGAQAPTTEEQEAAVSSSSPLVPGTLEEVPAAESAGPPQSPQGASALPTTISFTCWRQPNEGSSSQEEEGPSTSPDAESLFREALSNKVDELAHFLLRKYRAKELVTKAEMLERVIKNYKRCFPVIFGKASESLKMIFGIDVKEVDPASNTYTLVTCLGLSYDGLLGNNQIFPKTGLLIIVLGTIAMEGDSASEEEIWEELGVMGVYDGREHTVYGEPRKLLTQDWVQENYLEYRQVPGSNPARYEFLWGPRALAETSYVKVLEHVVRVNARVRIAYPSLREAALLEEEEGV
Chain of UniProt O00506 (whole entry, looked up): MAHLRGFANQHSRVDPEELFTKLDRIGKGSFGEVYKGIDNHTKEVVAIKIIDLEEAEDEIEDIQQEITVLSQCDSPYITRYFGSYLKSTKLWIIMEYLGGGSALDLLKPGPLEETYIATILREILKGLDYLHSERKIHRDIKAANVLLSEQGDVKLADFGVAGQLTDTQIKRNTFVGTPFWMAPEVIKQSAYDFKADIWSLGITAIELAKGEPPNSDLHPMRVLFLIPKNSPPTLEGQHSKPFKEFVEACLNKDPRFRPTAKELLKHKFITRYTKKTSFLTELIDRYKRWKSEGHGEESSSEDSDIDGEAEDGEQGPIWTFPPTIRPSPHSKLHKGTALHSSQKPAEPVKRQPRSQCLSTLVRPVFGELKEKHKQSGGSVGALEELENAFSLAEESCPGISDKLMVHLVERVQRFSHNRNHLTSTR
Chain of UniProt Q13547 (whole entry, looked up): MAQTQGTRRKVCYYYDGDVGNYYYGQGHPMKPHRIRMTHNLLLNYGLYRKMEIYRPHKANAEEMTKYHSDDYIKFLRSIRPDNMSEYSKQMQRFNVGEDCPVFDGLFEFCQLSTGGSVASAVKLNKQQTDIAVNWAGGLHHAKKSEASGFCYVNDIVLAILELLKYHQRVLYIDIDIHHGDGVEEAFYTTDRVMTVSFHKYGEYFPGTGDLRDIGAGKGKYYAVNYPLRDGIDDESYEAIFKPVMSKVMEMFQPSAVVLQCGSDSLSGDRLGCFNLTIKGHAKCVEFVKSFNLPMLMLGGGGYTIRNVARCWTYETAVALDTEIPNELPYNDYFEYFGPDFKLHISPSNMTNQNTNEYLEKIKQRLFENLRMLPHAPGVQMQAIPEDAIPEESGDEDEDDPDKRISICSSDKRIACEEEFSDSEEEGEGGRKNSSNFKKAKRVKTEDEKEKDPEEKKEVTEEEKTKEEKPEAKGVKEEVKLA
Chain of UniProt P51681 (whole entry, unmodified, looked up): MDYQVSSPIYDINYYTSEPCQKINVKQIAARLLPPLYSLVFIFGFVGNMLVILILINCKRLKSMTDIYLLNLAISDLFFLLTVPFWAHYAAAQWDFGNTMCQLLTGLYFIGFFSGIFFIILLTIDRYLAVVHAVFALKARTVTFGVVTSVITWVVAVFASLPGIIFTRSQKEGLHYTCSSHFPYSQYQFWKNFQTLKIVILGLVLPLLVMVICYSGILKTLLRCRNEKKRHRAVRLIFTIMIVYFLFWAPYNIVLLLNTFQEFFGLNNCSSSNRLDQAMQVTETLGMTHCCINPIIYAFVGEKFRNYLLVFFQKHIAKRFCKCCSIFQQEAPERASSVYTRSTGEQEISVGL
Chain of UniProt Q12809 (whole entry, looked up): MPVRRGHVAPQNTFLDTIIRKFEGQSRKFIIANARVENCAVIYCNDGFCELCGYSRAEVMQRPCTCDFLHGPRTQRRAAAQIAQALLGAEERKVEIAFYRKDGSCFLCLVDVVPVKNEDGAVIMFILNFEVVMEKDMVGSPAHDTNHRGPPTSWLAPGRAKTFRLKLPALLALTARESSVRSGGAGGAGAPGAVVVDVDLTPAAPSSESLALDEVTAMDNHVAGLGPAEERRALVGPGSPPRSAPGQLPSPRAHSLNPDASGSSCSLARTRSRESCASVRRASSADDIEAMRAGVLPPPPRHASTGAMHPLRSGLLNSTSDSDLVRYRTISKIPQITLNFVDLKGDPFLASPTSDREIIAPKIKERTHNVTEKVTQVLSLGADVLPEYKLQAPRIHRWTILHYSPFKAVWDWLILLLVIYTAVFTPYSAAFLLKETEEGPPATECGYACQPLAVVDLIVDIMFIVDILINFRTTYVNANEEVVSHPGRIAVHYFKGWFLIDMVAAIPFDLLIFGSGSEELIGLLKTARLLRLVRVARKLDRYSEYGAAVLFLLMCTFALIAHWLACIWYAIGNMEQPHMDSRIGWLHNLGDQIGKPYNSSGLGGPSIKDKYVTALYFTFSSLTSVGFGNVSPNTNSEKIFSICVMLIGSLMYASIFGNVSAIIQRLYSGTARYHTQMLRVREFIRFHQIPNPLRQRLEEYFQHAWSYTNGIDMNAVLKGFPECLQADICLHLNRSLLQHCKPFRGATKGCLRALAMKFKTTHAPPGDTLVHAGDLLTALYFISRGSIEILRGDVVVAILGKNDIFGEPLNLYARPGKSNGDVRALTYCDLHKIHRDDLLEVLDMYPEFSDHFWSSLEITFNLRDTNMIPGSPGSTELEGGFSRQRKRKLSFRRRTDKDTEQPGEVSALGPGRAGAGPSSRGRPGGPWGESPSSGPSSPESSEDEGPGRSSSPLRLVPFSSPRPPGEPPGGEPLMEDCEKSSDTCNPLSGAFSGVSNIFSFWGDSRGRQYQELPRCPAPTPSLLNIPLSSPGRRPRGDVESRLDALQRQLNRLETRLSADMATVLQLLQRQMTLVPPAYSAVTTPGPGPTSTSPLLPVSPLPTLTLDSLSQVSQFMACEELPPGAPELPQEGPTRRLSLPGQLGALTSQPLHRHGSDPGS
Chain of UniProt Q9NQR1 (whole entry, unmodified, looked up): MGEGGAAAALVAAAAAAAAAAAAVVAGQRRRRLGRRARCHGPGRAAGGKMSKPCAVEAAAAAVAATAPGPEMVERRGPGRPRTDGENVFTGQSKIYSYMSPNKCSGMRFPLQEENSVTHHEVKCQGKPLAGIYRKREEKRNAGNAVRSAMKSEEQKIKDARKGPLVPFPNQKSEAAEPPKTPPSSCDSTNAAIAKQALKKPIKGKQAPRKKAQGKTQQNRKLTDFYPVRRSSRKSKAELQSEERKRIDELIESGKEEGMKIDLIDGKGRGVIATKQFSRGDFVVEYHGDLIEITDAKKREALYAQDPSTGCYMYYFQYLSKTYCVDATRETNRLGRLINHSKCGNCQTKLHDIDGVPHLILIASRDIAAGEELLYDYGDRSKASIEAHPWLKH
Chain of UniProt P03952 (whole entry, looked up): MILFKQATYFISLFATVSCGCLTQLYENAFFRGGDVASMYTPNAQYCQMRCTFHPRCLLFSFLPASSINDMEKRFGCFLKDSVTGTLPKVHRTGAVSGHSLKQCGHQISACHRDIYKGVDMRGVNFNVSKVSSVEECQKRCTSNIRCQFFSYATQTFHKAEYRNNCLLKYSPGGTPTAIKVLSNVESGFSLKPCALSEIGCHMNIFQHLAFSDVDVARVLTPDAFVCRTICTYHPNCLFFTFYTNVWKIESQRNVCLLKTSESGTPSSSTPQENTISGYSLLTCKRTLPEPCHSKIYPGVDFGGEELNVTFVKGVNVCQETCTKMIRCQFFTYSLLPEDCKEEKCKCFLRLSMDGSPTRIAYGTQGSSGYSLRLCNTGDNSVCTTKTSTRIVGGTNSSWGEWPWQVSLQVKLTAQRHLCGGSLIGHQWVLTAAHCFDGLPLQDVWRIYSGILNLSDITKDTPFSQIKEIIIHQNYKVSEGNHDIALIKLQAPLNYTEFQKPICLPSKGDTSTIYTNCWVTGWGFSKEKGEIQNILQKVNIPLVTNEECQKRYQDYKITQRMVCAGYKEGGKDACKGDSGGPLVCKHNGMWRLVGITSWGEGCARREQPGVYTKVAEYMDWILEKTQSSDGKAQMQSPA

SMILES	target	test	test system	setting	IC50
CC1(F)CN(C(=O)Cn2c(=O)c(C(=O)NCc3ccc(Cl)cc3)cc3nc(N4CCN(CCN)C4=O)cnc32)C1	Voltage-gated inwardly rectifying potassium channel KCNH2 (KCNH2, Homo sapiens, UniProt Q12809)	ion current, automated patch clamp		retest	> 40000 nM
O=C(Nc1cccnc1)c1ccccc1NC(=O)C(C(F)(F)F)C(F)(F)F	Rhomboid protease AarA	enzyme activity, inhibitor, fluorescence			6000 nM
Cc1ccc(S(=O)(=O)N/N=C/c2ccsc2B(O)O)cc1	Plasma kallikrein (KLKB1, Homo sapiens, UniProt P03952)	enzyme activity, inhibitor			> 100000 nM
Cc1c(Cc2cccc(OC(C(=O)O)C(C)C)c2)c2ccc(C(=O)NC(C)c3cccc(C(C)(C)C)c3)cc2n1C (mixture of isomers)	PPARG ligand-binding domain	reporter gene, luciferase reporter	HEK293T, Gal4-PPARγ LBD		134000 nM
CC[C@H](C)[C@@H]1NC(=O)[C@H](Cc2ccc(O)cc2)NC(=O)CCSCc2cccc(c2)CSCCNC(=O)[C@H](Cc2c[nH]cn2)NC(=O)[C@H](Cc2ccc(O)cc2)NC(=O)[C@H](CC(=O)O)NC(=O)[C@H](Cc2ccc(O)cc2)NC(=O)[C@H](CC(C)C)NC(=O)[C@H](CCCNC(=N)N)NC1=O	Melanoma-associated antigen 4, MAGE homology domain (Homo sapiens, UniProt P43358)	binding, inhibitor, TR-FRET displacement		with: Alexa647-MTP-1	23.5 ± 8 nM
Cc1nn(-c2cccc(N)c2)c(=O)c2cnc(Nc3ccc(N4CCNCC4)cc3)nc12	Serine/threonine-protein kinase 25 (STK25, Homo sapiens, UniProt O00506)	enzyme activity, inhibitor			2940 nM
Cc1c(Cc2cccc(OC(C)(C)C(=O)O)c2)c2ccc(C(=O)N[C@@H](C)c3cccc(Br)c3)cc2n1C	PPARG	ligand displacement, TR-FRET			0.7 nM
Cc1ccc(N=C2CC(=O)c3sc(C)nc3C2=O)cc1	N-lysine methyltransferase KMT5A (KMT5A, Homo sapiens, UniProt Q9NQR1, C311S)	enzyme activity, radiometric filter		8 h, 1 µM enzyme C270S variant, with: 0.75 µM SAM, 1.5 µM H4K20 peptide	6000 nM
Cc1c(Cc2cccc(OC(C)C(=O)O)c2)c2ccc(C(=O)NC(C)c3cccc(C4CC4)c3)cc2n1C (mixture of isomers)	PPARG ligand-binding domain	reporter gene, luciferase reporter	HEK293T, Gal4-PPARγ LBD		2060 nM
Cc1nnc(-c2ccc(CC(=O)NC(CCN3C4CCC3CC(n3c(C)nnc3C(C)C)C4)c3ccccc3)cc2)nn1 (centres unmarked)	C-C chemokine receptor type 5 (CCR5, Homo sapiens, UniProt P51681, Y184K)	calcium mobilization, antagonist	HEK293T cells expressing CCR5	with: PSC-RANTES	1.71 nM
CCOc1cc(CN2CCC3(CC2)CN(c2ccc(C(=O)O)cc2)C(=O)N3)c(C2CC2)cc1C	Somatostatin receptor type 5 (SSTR5, Homo sapiens, UniProt P35346, M116A)	cAMP level, antagonist, GloSensor	AD293	M116A mutant, bandwidth 3.29, with: CST17 EC80 and forskolin	67.6 nM
Cc1ccc(C2CC(=O)N2S(=O)(=O)c2cccc(Cl)c2)cc1 (centres unmarked)	Rhomboid protease AarA	enzyme activity, inhibitor, fluorescence			21000 nM
Cc1c(Cc2cccc(OC(C)(C)C(=O)O)c2)c2ccc(C(=O)N[C@@H](C)c3cccc(C#N)c3)cc2n1C	PPARG ligand-binding domain	reporter gene, luciferase reporter	HEK293T, Gal4-PPARγ LBD		940 nM
COC(=O)CCCCCCNC(=O)Cc1ccc(Nc2ncc(F)c(-c3cc(F)c4nc(C)n(C(C)C)c4c3)n2)cc1	Histone deacetylase 1 (HDAC1, Homo sapiens, UniProt Q13547)	enzyme activity, inhibitor			> 1000 nM
O=C1CC(c2ccccc2)N1S(=O)(=O)c1cccc(-c2ccccc2)c1 (centres unmarked)	Rhomboid protease AarA	enzyme activity, inhibitor, fluorogenic peptide		188 min pre-incubation	5600 nM
Cc1c(Cc2ccc(OC(C)(C)C(=O)O)cc2)c2ccc(C(=O)N[C@@H](C)c3ccc(C(F)(F)F)cc3)cc2n1C	PPARG	ligand displacement, TR-FRET			25 nM
COc1ccc(O[C@@H]2O[C@H](COS(=O)(=O)O)[C@H](OS(=O)(=O)O)[C@H](O[C@@H]3O[C@H](C(=O)O)[C@@H](O[C@@H]4O[C@H](COS(=O)(=O)O)[C@H](OS(=O)(=O)O)[C@H](O[C@@H]5O[C@H](C(=O)O)[C@@H](OS(=O)(=O)O)[C@H](OCc6ccccc6)[C@H]5O)[C@H]4NC(C)=O)[C@H](OCc4ccccc4)[C@H]3O)[C@H]2NC(C)=O)cc1	Midkine (Homo sapiens, UniProt P21741)	heparin hexasaccharide binding, fluorescence polarisation competition		with: fluorescein-labelled hexasaccharide probe	25000 nM and 29000 nM

A few entries again:
SMILES	target	test	test system	setting	IC50
Cc1ccc(C2CC(=O)N2S(=O)(=O)c2cccc(Cl)c2)cc1 (centres unmarked)	Rhomboid protease AarA	enzyme activity, inhibitor, fluorescence			21000 nM
